# Values quoted from earlier work, collected from citations in different studies.
# Protocols differ between the studies behind these lines. ± gives the spread as reported.
# pyrDA: Dihydroorotate dehydrogenase A (fumarate) (pyrDA, Lactococcus lactis subsp. cremoris, UniProt A2RJT9)
# Chain of UniProt A2RJT9 (whole entry, looked up): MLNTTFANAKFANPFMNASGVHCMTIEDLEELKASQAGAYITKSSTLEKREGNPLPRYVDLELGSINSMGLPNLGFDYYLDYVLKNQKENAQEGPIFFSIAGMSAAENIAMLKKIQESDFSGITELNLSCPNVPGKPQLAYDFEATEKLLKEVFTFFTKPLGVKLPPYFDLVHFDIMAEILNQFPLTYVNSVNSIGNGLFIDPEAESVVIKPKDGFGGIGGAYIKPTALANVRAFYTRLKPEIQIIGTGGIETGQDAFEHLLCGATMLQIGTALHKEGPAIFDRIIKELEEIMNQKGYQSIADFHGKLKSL
SMILES,tested on,assay,system,setting,scale,measurement,result
O=C(O)c1ccc(O)c(O)c1,pyrDA,,"Lactococcus lactis, wild type",25 °C,,Kd,19 ± 2 µM
O=C(O)c1cc(-c2ccc([C@H]3C[C@H]4C[C@@H]3CN4)cc2)c2ccc(-c3ccc(C(F)(F)F)cc3)cc2c1,,,,pH 7.4,,logD,1.9 ± 0.1
OCCN1CCN(CCC=C2c3ccccc3Sc3ccc(C(F)(F)F)cc32)CC1,MCF7,"microarray, measured: ZNF165 mRNA",,concentration not given,relative to: DMSO,log2 fold change,1.24
COc1cc(C[C@H]2C(=O)OC[C@@H]2Cc2ccc(OC)c(OC)c2)ccc1O,influenza virus,"viral replication, plaque reduction",,,,IC50,74 µM
O=C(O)c1cc(O)cc(O)c1,pyrDA,,"Lactococcus lactis, wild type",25 °C,,Kd,18 ± 0.2 µM
CCOC(=O)C1=C[C@@H](OC(CC)CC)[C@H](NC(C)=O)[C@@H](N)C1,,,rats,"intravenous, 10 mg/kg",,clearance,1.8 L/h/kg
O=C(O)c1cc(-c2ccc(C3CCNCC3)cc2)c2ccc(-c3ccc(C(F)(F)F)cc3)cc2c1,,,,pH 7.4,,logD,1.9
Oc1ccc(C2(c3ccc(O)cc3)c3ccccc3-c3ccccc32)cc1,MDA-kb2,cell viability,,24 h,,IC50,1.32 µM

# For quick reference, copied from above:
SMILES,tested on,assay,system,setting,scale,measurement,result
O=C(O)c1ccc(O)c(O)c1,pyrDA,,"Lactococcus lactis, wild type",25 °C,,Kd,19 ± 2 µM
